Experimental data of several laboratories.
Compare with care: the assays were run in different laboratories. Numbers after ± are the reported error.
Tripartite terminase subunit 3 C-terminal nuclease domain: Tripartite terminase subunit 3, C-terminal nuclease domain (Human betaherpesvirus 5, UniProt P16732)

O=C(c1ccc(Cl)cc1)N1CCN2C(=O)N(OC(=O)N3CCOc4ccccc43)C(=O)C2C1 (stereo not drawn)  median ratio (Hepatic triacylglycerol lipase (Homo sapiens, UniProt P11150); enzyme activity, inhibitor, MS-based ABPP; SW-620 in situ; 10 µM, 2 h, 37 °C; relative to: compound over DMSO, lower = stronger inhibition): 1.1
O=C(Nc1ccc2c(c1)B(O)OC2)c1cccc(OCc2c(Cl)cccc2Cl)c1  inhibition (Genome polyprotein, NS2B-NS3 protease (dengue virus type 2, UniProt P29990); enzyme activity, FRET; dengue virus serotype 2; 50 µM, added: substrate 50 µM): 26 ± 6%
CN1CCN(c2cc(-c3ccncc3)c(-c3ccc4ccccc4c3)nn2)CC1  inhibition (P2Y purinoceptor 11 (P2RY11, Homo sapiens, UniProt Q96G91); antagonist, FLIPR; 10 µM): 7.1%
O=C(Nc1ccc2c(c1)B(O)OC2)c1cccc(OCC2CCCCC2)c1  inhibition (Genome polyprotein, NS2B-NS3 protease (West Nile virus, UniProt P06935); enzyme activity, FRET; 50 µM, added: substrate 50 µM): 14 ± 2%
COc1ccc(N2C(=O)N(c3c(C)cccc3Cl)Cc3cnc(Nc4ccc(C5CCN(C)CC5)cc4OC)nc32)nc1  inhibition (TXK (Homo sapiens, UniProt P42681); kinase activity; 0.5 µM): 96%
CO[C@H]1C[C@@H]2CC[C@@H](C)[C@@](O)(O2)C(=O)C(=O)N2CCCC[C@H]2C(=O)O[C@H]([C@H](C)C[C@@H]2CC[C@@H](OC(=O)NCCOCCOCCOCCOCCOCCOCCOCCOCCC(=O)N3CCc4cc(Cn5nc(-c6ccc7oc(N)nc7c6)c6c(N)ncnc65)ccc4C3)[C@H](OC)C2)C[C@@H](O)[C@H](C)/C=C(\C)[C@@H](O)[C@@H](OC)C(=O)[C@H](C)C[C@H](C)/C=C/C=C/C=C/1C  any TEAE incidence (phase 1 dose escalation; advanced solid tumour patients; intravenous, 16 mg weekly, grade ≥3): 100%
CC[C@H](C)[C@@H]1NC(=O)[C@@H]2CCCN2C(=O)[C@H](CC(C)C)NC(=O)[C@H](CC(C)C)NC(=O)CNC(=O)[C@@H](NC(=O)[C@@H](NC(=O)[C@H](CC(=O)O)NC(=O)CNC(=O)[C@@H](NC(=O)[C@H](C)NC(=O)CNC(=O)[C@H](CCCCN)NC(=O)[C@H](CC(C)C)NC(=O)[C@H](CC(C)C)NC(=O)[C@H](CCCCN)NC(=O)CNC(=O)[C@@H](NC(=O)[C@@H](N)CC(C)C)C(C)C)C(C)C)C(C)C)CSSC[C@@H](C(=O)O)NC1=O  log2 fold change (RNA-seq, item: Cxcr5; mouse, traumatic brain injury model, frontal cortex and hippocampus; dose not given; relative to: TBI alone): -4.04
O=c1[nH]c2cc(-c3ccc(F)cc3)sc2c(=O)n1O  inhibition (Tripartite terminase subunit 3 C-terminal nuclease domain; endonuclease activity, ELISA; 20 µM, added: dsDNA): 93%
Cc1ccc(S(=O)(=O)n2c(N)nc3ccccc32)cc1  inhibition (CHRM5 (Homo sapiens, UniProt P08912); 10 µM): 54.6%
C[C@H]1CN(c2n[nH]c3nc(N[C@H]4CC[C@H](NS(=O)(=O)CCC(F)(F)F)CC4)ncc23)CCO1  remaining binding (Filamin-C (FLNC, Homo sapiens, UniProt Q14315); Kinobeads competition, item: FLNC; 0.032 µM, unit not given; relative to: vehicle): 0.93
Cn1cccc1-c1cccnc1  inhibition (HRH4 (Homo sapiens, UniProt Q9H3N8); binding; 50 µM): -18.1%
COc1ccc(S(=O)(=O)Oc2ccc3c(c2)Oc2nc4c(c(N)c2C3c2cccc(OC)c2)CCCC4)cc1 (stereo not drawn)  inhibition (APP (Homo sapiens, UniProt P05067); Aβ42 self-aggregation, inhibitor, thioflavin T fluorescence; 100 µM): 81%
O=c1ccc2ccccc2o1  inhibition (PDE4D (Homo sapiens, UniProt Q08499); enzyme activity; 10 µM, SafetyScreen44): 7.36%
C[C@@H](O)[C@@H](CO)NC(=O)[C@@H](CCCNC(=N)N)NC(=O)[C@@H]1CCCN1C(=O)[C@@H]1CSSC[C@H](NC(=O)[C@H](Cc2ccccc2)NC(=O)CN2CCN(CC(=O)O)CCN(CC(=O)O)CCN(CC(=O)O)CC2)C(=O)N[C@@H](Cc2ccc(O)cc2)C(=O)N[C@@H](Cc2ccccc2)C(=O)N[C@@H](CCC(N)=O)C(=O)N[C@@H](CC(N)=O)C(=O)N1 [gallium-68 labelled]  tissue uptake (Wistar rat, muscle; intravenous, 8 MBq, 60 min, group mean): 0.4 %ID/g
CN(C(=O)n1cnc(-c2ccc[n+]([O-])c2)c1)C1CCCCC1  inhibition (dopamine D4.2 receptor, human; binding; 50 µM, added: [3H]spiperone): 4%
O=C(Nc1ccc2c(c1)B(O)OC2)c1ccc(OCc2ccc(Cl)cc2)cc1  inhibition (Genome polyprotein, NS2B-NS3 protease (dengue virus type 2, UniProt P29990); enzyme activity, FRET; dengue virus serotype 2; 50 µM, added: substrate 50 µM): ≤ 10%
Cc1sc2[nH]c(=O)n(O)c(=O)c2c1C  inhibition (Tripartite terminase subunit 3 C-terminal nuclease domain; endonuclease activity, ELISA; 20 µM, added: dsDNA): 100%
CC[C@H](C)[C@H](NC(=O)[C@H](Cc1ccccc1)NC(=O)[C@H](CCC(=O)O)NC(=O)[C@H](CCCNC(=N)N)NC(=O)[C@H](C)NC(=O)[C@H](C)NC(=O)[C@H](CCC(N)=O)NC(=O)[C@H](CCC(=O)O)NC(=O)[C@H](CCC(=O)O)NC(=O)[C@H](CC(C)C)NC(=O)[C@H](Cc1ccc(O)cc1)NC(=O)[C@H](CO)NC(=O)[C@H](CO)NC(=O)[C@@H](NC(=O)[C@H](CC(=O)O)NC(=O)[C@H](CO)NC(=O)[C@@H](NC(=O)[C@H](Cc1ccccc1)NC(=O)[C@@H](NC(=O)CNC(=O)[C@H](CCC(=O)O)NC(=O)[C@H](C)NC(=O)CCc1c[nH]cn1)[C@@H](C)O)[C@@H](C)O)C(C)C)C(=O)N[C@@H](C)C(=O)N[C@@H](Cc1c[nH]c2ccccc12)C(=O)N[C@@H](CC(C)C)C(=O)N[C@H](C(=O)N[C@@H](CCCNC(=N)N)C(=O)NCC(=O)N[C@@H](CCCNC(=N)N)C(=O)N[C@@H](CCCCNC(=O)COCCOCCNC(=O)COCCOCCNC(=O)CC[C@H](NC(=O)CCCCCCCCCCCCCCCCC(=O)O)C(=O)O)C(=O)NCC(=O)NCC(=O)N[C@@H](CO)C(=O)N[C@@H](CCCCNc1c(NCCCCCN(O)C(=O)CCC(=O)NCCCCCN(O)C(=O)CCC(=O)NCCCCCN(O)C(C)=O)c(=O)c1=O)C(=O)O)C(C)C [zirconium-89 labelled]  tissue uptake (rat, heart; sc, 3 nmol/kg, 24 h, ex vivo): 0.14 %ID/g
Nc1ncnc2c1ncn2[C@@H]1O[C@H](COP(=O)(O)OP(=O)(O)OP(=O)(O)O)[C@@H](O)[C@H]1O  short open time constant (ATP-sensitive inward rectifier potassium channel 11 (Homo sapiens, UniProt Q14654); single-channel patch clamp; concentration not given, reactivation after rundown): 1 ± 0.3 ms
O=C(O)C[C@H](NC(=O)[C@H](CC(=O)O)NC(=O)[C@H](CC(=O)O)NC(=O)[C@H](CC(=O)O)NC(=O)[C@H](CC(=O)O)NC(=O)[C@H](CC(=O)O)NC(=O)[C@H](CC(=O)O)NC(=O)[C@H](CC(=O)O)NC(=O)[C@H](CC(=O)O)NC(=O)[C@H](CC(=O)O)NC(=O)[C@H](CC(=O)O)NC(=O)[C@H](CCCCNC(=O)c1ccc(C(=O)NCCOCCOB2BBBBBB3BBBB3B2)cc1)NC(=O)CN1CCN(CC(=O)O)CCN(CC(=O)O)CCN(CC(=O)O)CC1)C(=O)O [gallium-67 labelled]  tissue uptake (ddY male mice, small intestine; intravenous, 37 kBq, 3 h): 0.2 %ID/g
CC(=O)N[C@H]1[C@H]([C@H](O)[C@H](O)CO)O[C@@](OC[C@H]2O[C@@H](Oc3ccc([N+](=O)[O-])cc3)[C@H](O)[C@@H](O)[C@H]2O)(C(=O)O)C[C@@H]1O  inhibition (Sialidase A (nanA, Streptococcus pneumoniae, UniProt P62575); 8 µM, pH 6): 5.8 ± 6.8%
O=C(Nc1cnccc1Cl)N1CCN(Cc2ccc3c(c2)OC(F)(F)O3)CC1  inhibition (ADORA1 (Homo sapiens, UniProt P30542); binding; 50 µM, added: [3H]DPCPX): 21%
Nc1ccc(C(=O)Nc2ccc3c(c2)B(O)OC3)cc1  inhibition (Genome polyprotein, NS2B-NS3 protease (West Nile virus, UniProt P06935); enzyme activity, FRET; 50 µM, added: substrate 50 µM): 14 ± 2%
COc1cc(Nc2ncc(F)c(Nc3ccc4c(n3)NC(=O)C(C)(C)O4)n2)cc(OC)c1OC  inhibition (FGR (Homo sapiens, UniProt P09769); KINOMEscan; 10 µM): 96%
COc1cc2c(Oc3ccc4[nH]c(C)cc4c3F)ccnc2cc1OCC1(N)CC1  grade 3 Hematochezia (paediatric recurrent refractory sarcoma; 8 mg/kg): 0%
Nc1ccncc1  inhibition (Voltage-gated potassium channel, KQT; KCNQ2(Kv7.2)/KCNQ3(Kv7.3) (KCNQ3/KCNQ2, Homo sapiens, UniProt O43525+O43526); ion current, antagonist, automated patch clamp; HEK293; 30 µM): -5%
O=C(Nc1cccnn1)N1CCC(=Cc2cccc(Oc3ccc(C(F)(F)F)cn3)c2)CC1  inhibition (RXRA (Homo sapiens, UniProt P19793); radioligand binding, inhibitor; 50 µM, human, added: [3H]9-cis-retinoic acid): 15%

For quick reference, copied from above:
CC[C@H](C)[C@@H]1NC(=O)[C@@H]2CCCN2C(=O)[C@H](CC(C)C)NC(=O)[C@H](CC(C)C)NC(=O)CNC(=O)[C@@H](NC(=O)[C@@H](NC(=O)[C@H](CC(=O)O)NC(=O)CNC(=O)[C@@H](NC(=O)[C@H](C)NC(=O)CNC(=O)[C@H](CCCCN)NC(=O)[C@H](CC(C)C)NC(=O)[C@H](CC(C)C)NC(=O)[C@H](CCCCN)NC(=O)CNC(=O)[C@@H](NC(=O)[C@@H](N)CC(C)C)C(C)C)C(C)C)C(C)C)CSSC[C@@H](C(=O)O)NC1=O  log2 fold change (RNA-seq, item: Cxcr5; mouse, traumatic brain injury model, frontal cortex and hippocampus; dose not given; relative to: TBI alone): -4.04
O=c1[nH]c2cc(-c3ccc(F)cc3)sc2c(=O)n1O  inhibition (Tripartite terminase subunit 3 C-terminal nuclease domain; endonuclease activity, ELISA; 20 µM, added: dsDNA): 93%
Cc1ccc(S(=O)(=O)n2c(N)nc3ccccc32)cc1  inhibition (CHRM5 (Homo sapiens, UniProt P08912); 10 µM): 54.6%
C[C@H]1CN(c2n[nH]c3nc(N[C@H]4CC[C@H](NS(=O)(=O)CCC(F)(F)F)CC4)ncc23)CCO1  remaining binding (Filamin-C (FLNC, Homo sapiens, UniProt Q14315); Kinobeads competition, item: FLNC; 0.032 µM, unit not given; relative to: vehicle): 0.93
